Results collected from several papers.
Parts stem from different laboratories: compare values within a part only.

Sample 1
Target: PABPC1L2, full length, GST fusion (mouse, UniProt A0ABA7IW68)
Technique: RNAcompete
Molecule type: RNA
Medium: in vitro
Concentration: 20 nM
Notes: 7-mer, probes averaged, single round
Baseline: mean of 7-mers
Direction: higher = stronger binding
Residues (chain): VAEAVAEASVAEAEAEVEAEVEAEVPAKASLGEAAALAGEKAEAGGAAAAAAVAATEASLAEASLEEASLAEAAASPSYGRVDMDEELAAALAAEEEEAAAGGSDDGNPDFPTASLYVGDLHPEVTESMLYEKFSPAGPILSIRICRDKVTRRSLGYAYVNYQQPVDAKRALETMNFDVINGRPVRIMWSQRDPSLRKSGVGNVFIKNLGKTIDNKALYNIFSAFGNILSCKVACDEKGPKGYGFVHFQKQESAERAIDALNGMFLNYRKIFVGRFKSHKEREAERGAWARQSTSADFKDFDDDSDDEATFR
| Oligonucleotide | 7-mer Z-score |
| --- | --- |
| ACUCGCG | -0.289 |
| AAACACA | 3.04 |
| CUUCUCG | -0.458 |
| GUCCCCU | -0.416 |
| UACGGGU | 0.157 |
| AAGUUUA | 0.0352 |

Sample 2
Target: RNA binding protein fox-1 homolog 2, RRM domain, GST-SBP tag (RBFOX2, Homo sapiens, UniProt O43251-10, residues 100-194)
Technique: RNA Bind-n-Seq
Molecule type: RNA
Medium: in vitro
Concentration: 365 nM
Notes: natural RNA segment, single round, ends assumed
Baseline: no-protein control
Direction: higher = stronger binding
Shared flanks, not repeated: GGGAGUUCUACAGUCCGACGAUC … UGGAAUUCUCGGGUGCCAA
Target sequence (chain): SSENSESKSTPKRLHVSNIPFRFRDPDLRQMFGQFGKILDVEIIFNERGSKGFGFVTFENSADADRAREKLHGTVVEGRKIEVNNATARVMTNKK
| Oligonucleotide | RBNS enrichment (R) |
| --- | --- |
| UGCUAGGUGAGUUUCAUUCUGGAAAAGGAGAAAGAUAGUGAUGUCUAGAUGCCUGUAGCCUGUGGGGAAAAGCCAACUAGAAAACAACUGGCGUUUAUCAGGUACCUUAG | 0.451 |
| AAAGCAGAGGAACGGAAAGGGAAAGGGCCAGGUCAUCCUCAGCCACAUAGUGAGUCCAAGGUCGGCCUGGACUGCACGAGAGUCUGUCUAGGAAUGCAGUUAGUAAAAGC | 1.28 |
| CUGAAGAACUUUGGGGGGAAUUUUGUACUUUUUUCCUGUGUAAAUAUUGGACUUUUUUGAGCUUUAUCGUGGUUGUUAAUUUGAAGUAAUAAAGUAGAAAAGAUAAAGUG | 1.15 |
| GGAGGCCCCCAUGCUGUCUGAGGGGAGGCCGGCAUAGCCCCUCCUCGACUGUCGCCUGAGCAGCUGAUGAGGUCCCCAGCGCCGCACGCUGUGCUCCAGGGAGAGGAGCC | 1.12 |
| UCUCUAAAGGGAAAGGGCUUUUGCAUCUAAUCACAAUAGAGUUGAAAGAGAGGCCUUAGGAUUCUCCUCUCUCUAGGUGCUGAGCCCUCACCUCCCUGUUCCAGGCUGAG | 0.294 |
| GGCCUUUUCAGCAUUGGCCCACUAGCACCAUGCAUUUAUCUGAAUUCACGGGGCCCUCUGGGCACAUUCAUCAUCCCUCAUACACUAACUACUGUUUCUUCAUGUAAUGA | 0.235 |
| ACCCCCGUGAGACCUCAGCAGGACACUGACCACUGAGGACCAGUCAUCAUGACACAGCAAGCCGUGACCCCUCUGUCUGCUGUACUGGCCCAGCCUCCUGCUCGCACCUC | 0.547 |
| CGCAGCUGCCCACACGCAAGGUCAUGGCCCCAGCGGCCCCGGCACAUGGAGUGGUUCAGCGCGGCCUGGGUGCCUGGCGGACAGAACUUCAGAGACCACGCAGCCUUCCU | 0.417 |

Sample 3
Target: Interferon regulatory factor 7, full length, phosphomimetic (IRF7, Homo sapiens, UniProt Q92985, residues 1-503, S471D/S472D/S475D/S476D/S477D/S483D/S484D/S487D)
Sequence of UniProt Q92985 (whole entry, unmodified, looked up): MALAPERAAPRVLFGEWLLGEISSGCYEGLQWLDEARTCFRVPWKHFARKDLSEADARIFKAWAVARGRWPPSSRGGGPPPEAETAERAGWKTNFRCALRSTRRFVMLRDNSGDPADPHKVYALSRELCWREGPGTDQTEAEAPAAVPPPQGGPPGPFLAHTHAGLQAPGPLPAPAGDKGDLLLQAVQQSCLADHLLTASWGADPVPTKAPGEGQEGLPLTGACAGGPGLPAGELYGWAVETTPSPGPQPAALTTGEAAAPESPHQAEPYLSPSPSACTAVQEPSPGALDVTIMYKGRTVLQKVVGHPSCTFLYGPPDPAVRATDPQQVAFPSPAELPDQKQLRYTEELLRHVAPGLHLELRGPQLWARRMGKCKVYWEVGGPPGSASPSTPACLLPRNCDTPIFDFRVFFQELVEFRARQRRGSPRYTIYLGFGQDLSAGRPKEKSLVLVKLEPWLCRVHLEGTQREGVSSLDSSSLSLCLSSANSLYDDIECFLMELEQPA
Technique: protein-binding microarray
Molecule type: double-stranded DNA, one strand shown
Medium: in vitro
Concentration: 2200 nM top
Notes: 60-bp whole probe
Added: salmon DNA 0.4 mg/ml
Baseline: random background probes
Direction: higher = stronger binding
Shared flanks, not repeated: GCCTAGCAC … GTCTTGATTCGCTTGACGCTGCTG
| Oligonucleotide | fitted relative affinity [z-score] |
| --- | --- |
| TGAAAATTAGTGTTTGCCCTAGTGCTA | -0.336 |
| TTAGATATCGGGCTTCGATTAGTGCTA | -0.176 |
| TTAGGTATCGGTCTCGGTTAGTGCTAG | 1.04 |
| GACGGATTCGGTTCCGGGACGTGCTAG | 3.46 |
| TCATAGCTTCCTTTCGCACTGTGCTAG | 2.46 |
| TTAGGTCTTGGTCTCGGTTAGTGCTAG | 0.753 |
| TGTTGTCTTAGATTCCTTTGGTGCTAG | 1.28 |
| GAAGAACTGAGACTGGAGACGTGCTAG | -0.789 |
| TCACTTTGCTCATTTTTCACTGTGCTA | 2.84 |
| GACGATTTAGGGTATCGAGACGTGCTA | 0.131 |

Further values, each from its own experiment
| Molecule | target | test | system | conditions | how to read | endpoint | result |
| --- | --- | --- | --- | --- | --- | --- | --- |
| PhoQ, residues 284 288 289 292 302 303 TLMATV | PhoP, residues 12 14 15 18 19 VQALL (Escherichia coli, UniProt P23836) | Sort-seq, refers to: YFP reporter | E. coli | PhoQ-PhoP variant library, added: 10 µM Mg2+ | baseline: high Mg2+ state, higher = stronger signaling | fold induction | 2.85 |

Repeated from above (sample 1):
| Oligonucleotide | 7-mer Z-score |
| --- | --- |
| AAACACA | 3.04 |
| CUUCUCG | -0.458 |
| GUCCCCU | -0.416 |
